Measurements pooled from the literature.
Target: Amine oxidase [flavin-containing] A (MAOA, Homo sapiens, UniProt P21397)
Sequence of UniProt P21397 (whole entry, looked up): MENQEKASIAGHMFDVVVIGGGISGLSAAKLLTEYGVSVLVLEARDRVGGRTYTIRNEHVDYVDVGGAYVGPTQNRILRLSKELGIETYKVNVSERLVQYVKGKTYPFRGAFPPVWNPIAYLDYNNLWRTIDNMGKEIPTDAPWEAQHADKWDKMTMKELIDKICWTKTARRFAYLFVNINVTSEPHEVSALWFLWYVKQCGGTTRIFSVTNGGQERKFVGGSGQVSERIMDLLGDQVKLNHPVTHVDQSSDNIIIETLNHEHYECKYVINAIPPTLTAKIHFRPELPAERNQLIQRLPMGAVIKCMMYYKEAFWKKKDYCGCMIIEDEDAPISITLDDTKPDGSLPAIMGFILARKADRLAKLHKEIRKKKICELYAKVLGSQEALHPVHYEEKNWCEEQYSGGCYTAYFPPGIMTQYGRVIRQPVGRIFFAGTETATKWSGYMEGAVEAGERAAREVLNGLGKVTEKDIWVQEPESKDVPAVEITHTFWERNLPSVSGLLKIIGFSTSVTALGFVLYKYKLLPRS
Read-out: enzyme activity
Action: inhibitor
Concentration: 10 µM

| SMILES | assay | remaining activity |
| --- | --- | --- |
| O=C(/C=C/c1ccc(F)cc1)c1ccc(N2CCNCC2)cc1 |  | 94.5% |
| CNC(=S)N/N=C/c1ccccc1OCc1ccccc1 | absorbance | 64.9% |
| N#Cc1ccc(CN2c3ccccc3C(=O)C23CCCC3)cc1 |  | 63.5% |
| O=C(/C=C/c1ccc(F)cc1)c1cc2ccccc2oc1=O |  | 88.1% |
| CNC(=S)N/N=C/c1ccc(OCc2cccc(F)c2)cc1 | absorbance | 88.8% |
| O=C(/C=C/c1cccc(Br)c1)c1cc2ccccc2oc1=O |  | 86.2% |
| O=C1c2ccccc2N(Cc2cccc(Cl)c2)C12CCCC2 |  | 45.2% |
| O=C(/C=C/c1ccc(Cl)cc1)c1cc2ccccc2oc1=O |  | 86.8% |
| O=C1c2cc(Br)ccc2NC12CCCC2 |  | 75.5% |
| NC(=S)N/N=C/c1ccc(OCc2cccc(F)c2)cc1 | absorbance | 46.1% |
| CCc1ccc(/C=C/C(=O)c2ccc(N3CCNCC3)cc2)cc1 |  | 93.1% |
| O=C(/C=C/c1ccccc1Br)c1cc2ccccc2oc1=O |  | 86.8% |
| O=C1c2ccccc2N(Cc2cccc(Br)c2)C12CCCC2 |  | 24.1% |
| O=C(/C=C/c1ccc(O)cc1)c1ccc(N2CCNCC2)cc1 |  | 76.4% |
| O=C(/C=C/c1ccccc1)c1cc2ccccc2oc1=O |  | 94.8% |
| S=C(N/N=C/c1ccccc1OCc1ccccc1)Nc1ccccc1 | absorbance | 98.3% |
| O=C1c2cc(Cl)ccc2N(Cc2ccccc2)C12CCCC2 |  | 66% |
| NC(=O)N/N=C/c1ccc(OCc2cccc(F)c2)cc1 | absorbance | 45.8% |
| O=C(/C=C/c1ccc(Br)cc1)c1ccc(N2CCNCC2)cc1 |  | 98.6% |
| CNC(=S)N/N=C/c1cccc(OCc2ccccc2)c1 | absorbance | 36.6% |
| COc1ccc(/C=C/C(=O)c2ccc(N3CCNCC3)cc2)cc1 |  | 65.7% |

A few entries again:
| SMILES | assay | remaining activity |
| --- | --- | --- |
| O=C1c2cc(Cl)ccc2N(Cc2ccccc2)C12CCCC2 |  | 66% |
| O=C(/C=C/c1ccccc1Br)c1cc2ccccc2oc1=O |  | 86.8% |
